Published values collected from several papers.
Numbered parts are unrelated; each lists some results of a single study. Several values in a cell are separate wells, animals, samples, runs or records.

Series 1
Target: RNA binding protein fox-1 homolog 2, RRM domain, GST-SBP tag (RBFOX2, Homo sapiens, UniProt O43251-10, residues 100-194)
Method: RNA Bind-n-Seq
Form: RNA
Sample: in vitro
Concentration: 365 nM
Notes: natural RNA segment, single round, ends assumed
Baseline: no-protein control
Direction: higher = stronger binding
Shared flanks, not repeated: GGGAGUUCUACAGUCCGACGAUC … UGGAAUUCUCGGGUGCCAA
Construct (chain): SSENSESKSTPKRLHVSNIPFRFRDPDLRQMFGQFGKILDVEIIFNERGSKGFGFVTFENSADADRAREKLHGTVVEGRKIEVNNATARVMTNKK
For `UCCUGCCUUCUUCCUUGAGGGGCAGUUUGGGAAGGUGAUGGGUAUUAGUGGGGGACUGAGUUCAGGUUACCAGAACCAGUACCUCAGUAUUCUUUUUCAACAUGUAGGGC`, “RBNS enrichment (R)” read 0.29.
For `UAAAAAAAUUCUCCAACAAAAAUACUUGUUGACUUGAUGUUUUAUCACUUCUCUAAGUAAGGUUGAAAUAUCCUUAUUGUAGCUACUGUUUUUAAUGUAAAGGUUAAACU`, “RBNS enrichment (R)” read 0.435.
`GAUAUGGUUUGGCUGUGUCCCCAUCCAAAUAUCACCUUAAAUUGUAGCUCCCAUAAUUGUGGGAGGGACCUGGUGGGAGAUAAUUGAAUCAUAGGGGCAGUUUCUCCCAU` — result for “RBNS enrichment (R)”: 0.262.
`CUGGGCCUCACCCUUAGACUGAGGCUGCACCCAUUCCUUAGAGGCUACUUCAGUUGCCUGACAAGAUCAAACUGGAUGAUAUAGCCAUCUGGCUUCUUCCAGAGACAUGG`: “RBNS enrichment (R)” 0.26.
For `CAUCCCUUCUCCCACCUCCUCCCCUCUCCCUCCCCCUGGAGACCCUGGAAGUGGUGUGUUCACAUACAGUGACCCUUGGCCACCAGACCACAGAGGAUGGAGCCUGGGAA`, “RBNS enrichment (R)” read 0.393.
`CAAGAUGACCAAAUACUCUACCACACUAACCAAGGAGCCCUCCCUAGCCCUGCAGUUCCCACCUUUGAGGUUUUGUUAUGGUAAGUCCCCAAGUCCAGUACCUCUGGUAA`: “RBNS enrichment (R)” 0.675.
For `GCCUGGAAAGUCCACUUGGACUUGACAAUGAGGAGCUCUCUGCUGUCACCUGCUGUGAUUCCUAGAGUCAGAAUCAGACUGCAGUGGCCACAGGCACAAGUGGGAAGUGA`, “RBNS enrichment (R)” read 0.447.
`GUACUGUCCCGGCUGGUUUUAUCUCAGCUCCUCUCAGCCGUGUCUCUGGCACGCUUGAGAGGAGUCAUGCCACUUUGAUGCUCCUUGCAGAGGUGGGACACUGAGGUGCU` — result for “RBNS enrichment (R)”: 0.147.

Series 2
Target: Histone acetyltransferase KAT6A, winged helix 1, GST fusion (KAT6A, Homo sapiens, UniProt Q92794, residues 1-85)
Method: protein binding microarray
Form: double-stranded DNA, one strand shown
Sample: in vitro
Concentration: not given
Notes: 8-mer, flanks averaged, mean of 2 arrays, mostly near background
Baseline: not given
Direction: higher = stronger binding
Residues (chain): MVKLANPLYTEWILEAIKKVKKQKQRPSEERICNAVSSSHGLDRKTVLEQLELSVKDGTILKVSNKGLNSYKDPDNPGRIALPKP
`TACCCATA` gave an E-score of -0.21.
With `TAAGGAGA` the E-score was -0.199.
With `TATAATAA` the E-score was 0.0286.
The E-score of `AAAGTCGA` is reported as -0.149.
With `CAGCAAGC` the E-score was -0.14.
For `CAAAAATG`, the E-score was -0.093.
The E-score of `CTCCCTAC` is reported as -0.0896.
`ATAGCATG` has an E-score of -0.0858.

Series 3
Target: Replicase polyprotein 1ab, polymerase (rep, Severe acute respiratory syndrome coronavirus 2, UniProt P0DTD1)
Read-out: enzyme activity
Mode: inhibitor
Concentration: 20 µM
The inhibition of `Nc1cccc(CNC(=O)c2ccc(Oc3ccc(OCc4cccc(F)c4)cc3)nc2)c1` is reported as 5.65%.
With `CCC1(CC)C(=O)C=CNC1=O` the inhibition was 1.31%.
`CC(=O)C1=C(O)[C@@H]2[C@H]3c4c[nH]c5cccc(c45)C[C@H]3C(C)(C)N2C1=O` has an inhibition of -2.13%.
The inhibition of `O=C(O)c1cccnc1C(=O)O` is reported as -5.57%.
`O=C1C[C@@H](c2ccc(O)cc2)Oc2cc(O)cc(O)c21` has an inhibition of 1.66%.
With `Cc1ccc(C[N+](C)(C)C)o1` the inhibition was -2.13%.
`CCOCc1nc2c(N)nc3ccccc3c2n1CC(C)(C)O` gave an inhibition of 1.05%.
With `Cc1[nH]c2ccccc2c1CCNCc1ccc(/C=C/C(=O)NO)cc1` the inhibition was 0.08%.
`Nc1nccc(Oc2ccc(NC(=O)c3cn(COP(=O)(O)O)cc(-c4ccc(F)cc4)c3=O)cc2F)c1Cl` has an inhibition of 18.5%.
`CC1CCN(CCCC(=O)c2ccc(F)cc2)CC1` gave an inhibition of 0.52%.
For `CNCC(O)c1ccc(O)cc1` (centres unmarked), the inhibition was 4.73%.
With `CCCCCCCCCCOc1cc2c(O)c(C(=O)OCC)cnc2cc1OCC` the inhibition was -7.52%.
`CSCC[C@H](NC(=O)[C@H](Cc1ccccc1)NC(=O)CNC(=O)CNC(=O)[C@@H](N)Cc1ccc(O)cc1)C(=O)O` gave an inhibition of -2.16%.
With `O=C1c2ccccc2C(=O)c2ccccc21` the inhibition was -2.04%.
For `Cc1cccc(-c2[nH]ncc2-c2ccc3ncccc3n2)n1`, the inhibition was 1.55%.
The inhibition of `Cc1c(CC(C)(C)C(=O)O)n(Cc2ccc(Cl)cc2)c2ccc(F)cc12` is reported as 3.9%.
For `COc1cc(NS(=O)(=O)c2ccc(N)cc2)ncn1`, the inhibition was 21.5%.
With `N#CN1CCCC1` the inhibition was -2.45%.
The inhibition of `CSc1nc(NC2CCCC2)c([N+](=O)[O-])c(NC2CCCC2)n1` is reported as 3.74%.
The inhibition of `O=C(O)CCN(O)C(=O)CCCCCCCCC1CC1` is reported as -0.57%.
With `CCCCC/C=C\C=C\CCCCCCCCC(=O)O` the inhibition was -6.76%.
For `Cc1ccc(Sc2ccccc2N2CCNCC2)c(C)c1`, the inhibition was 9.02%.
With `Cc1cccc(C(C)c2c[nH]cn2)c1C` (centres unmarked) the inhibition was -8.34%.
For `C/C=C/C[C@@H](C)C(=O)[C@H]1C(=O)N[C@@H](C(C)C)C(=O)N(C)CC(=O)N(C)[C@@H](CC(C)C)C(=O)N[C@@H](C(C)C)C(=O)N(C)[C@@H](CC(C)C)C(=O)N[C@@H](C)C(=O)N[C@H](C)C(=O)N(C)[C@@H](CC(C)C)C(=O)N(C)[C@@H](CC(C)C)C(=O)N(C)[C@@H](C(C)C)C(=O)N1C`, the inhibition was -1.56%.
For `N[C@@H](C(=O)O)c1nn[nH]n1` (racemic), the inhibition was -7.92%.

Series 4
Target: Replicase polyprotein 1ab, main protease (rep, Severe acute respiratory syndrome coronavirus 2, UniProt P0DTD1)
Read-out: enzyme activity
Mode: inhibitor
Concentration: 20 µM
Notes: hit confirmation
`CC(C)c1cc(CNc2nc(Nc3cc(C4CC4)[nH]n3)cc(N3CCN(C)CC3)n2)on1` gave an inhibition of 99.2%.
`O=C(O)CCCCCCCCCCCCCCc1ccc(I)cc1` gave an inhibition of 98.4%.
The inhibition of `Oc1ccc2c3c1O[C@H]1c4[nH]c5ccccc5c4C[C@@]4(O)C(C2)N(CC2CC2)CC[C@]314` is reported as -5.9%.
The inhibition of `CC(C)C[C@@H](C=O)NC(=O)[C@H](CC(C)C)NC(=O)[C@H](CC(C)C)NC(=O)OCc1ccccc1` is reported as 98.8% and 78.6%.
With `O=c1cc(-c2ccc(O)cc2)oc2cc(O)cc(O)c12` the inhibition was 97.5%.

Series 5
Cell line: HEK-293T/ACE2
Concentration: concentration not given
Time: 16 (unit not given)
Baseline: vehicle
For `CC1=C(/C=C/C(C)=C/C=C/C(C)=C\C(=O)O)C(C)(C)CCC1`, the viability was 103%.
`C[C@H](CCC(=O)NCCS(=O)(=O)O)[C@H]1CC[C@H]2[C@@H]3[C@@H](O)C[C@@H]4C[C@H](O)CC[C@]4(C)[C@H]3CC[C@]12C` has a viability of 106%.
`C[N+]1(C)[C@@H]2CC[C@H]1C[C@@H](OC(=O)C(O)c1ccccc1)C2` (some centres unmarked) has a viability of 101%.
With `CC(c1cc2ccccc2s1)N(O)C(N)=O` (centres unmarked) the viability was 105%.

For quick reference, copied from above (series 3):
With `CCCCCCCCCCOc1cc2c(O)c(C(=O)OCC)cnc2cc1OCC` the inhibition was -7.52%.
`CSCC[C@H](NC(=O)[C@H](Cc1ccccc1)NC(=O)CNC(=O)CNC(=O)[C@@H](N)Cc1ccc(O)cc1)C(=O)O` gave an inhibition of -2.16%.
With `O=C1c2ccccc2C(=O)c2ccccc21` the inhibition was -2.04%.
For `Cc1cccc(-c2[nH]ncc2-c2ccc3ncccc3n2)n1`, the inhibition was 1.55%.
